{"data": "Measurements from different studies", "note": "Numbered parts are unrelated; each lists some results of a single study. Positions count from the first letter of the parent shown.", "chain of UniProt P23443 (whole entry, looked up)": "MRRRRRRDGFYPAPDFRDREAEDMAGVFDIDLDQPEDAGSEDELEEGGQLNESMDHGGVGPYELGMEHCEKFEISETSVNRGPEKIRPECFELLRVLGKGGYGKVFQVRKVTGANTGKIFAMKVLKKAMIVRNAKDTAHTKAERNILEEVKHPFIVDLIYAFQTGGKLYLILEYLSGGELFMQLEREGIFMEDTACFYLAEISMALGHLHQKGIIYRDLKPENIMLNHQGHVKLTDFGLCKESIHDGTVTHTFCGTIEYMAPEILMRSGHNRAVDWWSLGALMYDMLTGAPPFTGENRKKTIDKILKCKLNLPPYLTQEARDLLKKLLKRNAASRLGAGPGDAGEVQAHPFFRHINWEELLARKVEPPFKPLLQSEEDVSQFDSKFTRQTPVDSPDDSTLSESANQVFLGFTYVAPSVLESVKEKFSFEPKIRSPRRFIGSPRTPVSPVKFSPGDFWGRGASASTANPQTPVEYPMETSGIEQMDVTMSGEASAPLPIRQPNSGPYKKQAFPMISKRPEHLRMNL", "chain of UniProt O00141 (whole entry, looked up)": "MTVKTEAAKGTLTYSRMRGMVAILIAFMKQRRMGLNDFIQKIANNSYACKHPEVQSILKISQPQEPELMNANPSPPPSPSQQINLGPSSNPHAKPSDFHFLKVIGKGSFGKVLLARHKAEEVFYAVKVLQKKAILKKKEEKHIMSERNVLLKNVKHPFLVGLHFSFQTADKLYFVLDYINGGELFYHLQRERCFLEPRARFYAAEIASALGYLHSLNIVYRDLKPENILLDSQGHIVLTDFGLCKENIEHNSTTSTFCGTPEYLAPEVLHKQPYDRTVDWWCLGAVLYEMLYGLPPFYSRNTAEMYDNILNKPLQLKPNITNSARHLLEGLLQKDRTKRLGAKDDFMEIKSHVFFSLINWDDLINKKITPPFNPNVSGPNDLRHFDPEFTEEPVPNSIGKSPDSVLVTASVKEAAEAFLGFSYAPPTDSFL", "chain of UniProt Q9UQB9 (whole entry, looked up)": "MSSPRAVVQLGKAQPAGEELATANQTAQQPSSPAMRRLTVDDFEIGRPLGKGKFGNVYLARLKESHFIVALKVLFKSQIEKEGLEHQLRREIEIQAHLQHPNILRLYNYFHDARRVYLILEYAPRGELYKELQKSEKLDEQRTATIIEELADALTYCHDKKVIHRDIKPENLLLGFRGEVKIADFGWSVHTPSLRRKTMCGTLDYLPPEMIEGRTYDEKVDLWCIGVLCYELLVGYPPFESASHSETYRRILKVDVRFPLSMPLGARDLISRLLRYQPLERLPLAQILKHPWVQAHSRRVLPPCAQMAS", "chain of UniProt Q9P1W9 (whole entry, looked up)": "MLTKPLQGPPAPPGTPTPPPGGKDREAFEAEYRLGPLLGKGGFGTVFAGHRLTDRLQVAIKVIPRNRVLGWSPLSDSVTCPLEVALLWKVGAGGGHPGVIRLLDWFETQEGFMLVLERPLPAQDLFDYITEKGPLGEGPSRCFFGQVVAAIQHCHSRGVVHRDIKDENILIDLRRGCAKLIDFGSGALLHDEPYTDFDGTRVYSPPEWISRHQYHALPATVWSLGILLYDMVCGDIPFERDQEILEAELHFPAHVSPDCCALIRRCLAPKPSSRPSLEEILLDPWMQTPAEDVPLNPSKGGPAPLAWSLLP", "chain of UniProt P49840 (whole entry, looked up)": "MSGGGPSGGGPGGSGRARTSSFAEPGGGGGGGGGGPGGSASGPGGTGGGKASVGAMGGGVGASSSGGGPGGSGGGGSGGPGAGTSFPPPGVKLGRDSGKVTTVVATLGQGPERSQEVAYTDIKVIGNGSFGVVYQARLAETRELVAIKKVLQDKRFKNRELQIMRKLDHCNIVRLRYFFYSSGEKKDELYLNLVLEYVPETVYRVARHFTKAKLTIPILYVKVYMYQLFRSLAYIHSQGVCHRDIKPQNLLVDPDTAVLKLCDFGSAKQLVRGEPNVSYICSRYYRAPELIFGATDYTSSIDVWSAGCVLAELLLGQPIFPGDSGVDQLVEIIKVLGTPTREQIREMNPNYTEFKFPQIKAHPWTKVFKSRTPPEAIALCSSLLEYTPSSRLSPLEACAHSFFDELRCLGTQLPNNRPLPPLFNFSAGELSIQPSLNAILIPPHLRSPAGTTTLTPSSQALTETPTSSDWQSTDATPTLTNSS", "chain of UniProt Q15375 (whole entry, looked up)": "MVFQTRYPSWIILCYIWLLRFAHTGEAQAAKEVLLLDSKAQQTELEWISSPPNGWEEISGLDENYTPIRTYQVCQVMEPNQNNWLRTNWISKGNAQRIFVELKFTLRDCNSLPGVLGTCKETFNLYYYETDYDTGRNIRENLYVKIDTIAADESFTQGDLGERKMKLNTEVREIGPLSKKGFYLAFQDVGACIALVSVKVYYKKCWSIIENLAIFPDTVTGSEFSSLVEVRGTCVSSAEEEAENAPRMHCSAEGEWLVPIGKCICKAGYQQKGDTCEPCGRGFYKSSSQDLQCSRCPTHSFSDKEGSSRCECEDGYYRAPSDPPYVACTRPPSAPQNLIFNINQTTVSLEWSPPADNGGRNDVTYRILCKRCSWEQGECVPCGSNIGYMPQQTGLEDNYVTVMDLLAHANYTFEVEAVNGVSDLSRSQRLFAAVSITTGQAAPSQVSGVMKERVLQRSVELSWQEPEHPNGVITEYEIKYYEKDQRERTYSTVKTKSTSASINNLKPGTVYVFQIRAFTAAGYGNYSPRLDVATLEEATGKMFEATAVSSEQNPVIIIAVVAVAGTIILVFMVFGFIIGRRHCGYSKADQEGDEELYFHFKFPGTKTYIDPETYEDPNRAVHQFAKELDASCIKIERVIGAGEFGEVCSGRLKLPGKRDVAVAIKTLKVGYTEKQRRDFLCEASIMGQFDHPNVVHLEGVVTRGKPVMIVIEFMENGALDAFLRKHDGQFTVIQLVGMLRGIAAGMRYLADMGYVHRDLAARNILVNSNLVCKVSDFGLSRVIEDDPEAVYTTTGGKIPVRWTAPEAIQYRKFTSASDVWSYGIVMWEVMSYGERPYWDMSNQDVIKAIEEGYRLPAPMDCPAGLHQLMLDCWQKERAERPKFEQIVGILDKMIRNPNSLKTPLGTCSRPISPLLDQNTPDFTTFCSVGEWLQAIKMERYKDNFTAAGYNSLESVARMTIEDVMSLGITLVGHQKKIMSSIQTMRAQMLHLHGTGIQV"}
{"data": "Study 1", "target": "TAR DNA-binding protein 43, full length, His tag (TARDBP, Homo sapiens, UniProt Q13148, residues 1-414)", "technique": "RNA Bind-n-Seq", "form": "RNA", "matrix": "in vitro", "tested at": "20 nM", "setting": "6-mer, flanks averaged, single round", "with": "150 mM KCl", "reference": "input library", "reading": "higher = stronger binding"}
{"Strand": "UUUUGU", "6-mer enrichment (R)": 0.769}
{"Strand": "UAGCAA", "6-mer enrichment (R)": 0.669}
{"Strand": "UUGCGA", "6-mer enrichment (R)": 0.781}
{"Strand": "UACGAU", "6-mer enrichment (R)": 0.599}
{"Strand": "AGGCCG", "6-mer enrichment (R)": 1.44}
{"Strand": "GUGCUG", "6-mer enrichment (R)": 1.33}
{"Strand": "CACAGG", "6-mer enrichment (R)": 1.14}
{"Strand": "CGGACC", "6-mer enrichment (R)": 0.909}
{"data": "Study 2", "target": "inorganic phosphate, free oxyanion", "technique": "microfluidic competitive inhibition", "matrix": "in vitro, cell-free expressed", "tested at": "not given", "setting": "derived from inhibition constants, unchanged parent 615000 nM", "reading": "lower = stronger binding", "parent": "PafA, mature enzyme, eGFP fusion (Elizabethkingia meningoseptica, UniProt Q9KJX5); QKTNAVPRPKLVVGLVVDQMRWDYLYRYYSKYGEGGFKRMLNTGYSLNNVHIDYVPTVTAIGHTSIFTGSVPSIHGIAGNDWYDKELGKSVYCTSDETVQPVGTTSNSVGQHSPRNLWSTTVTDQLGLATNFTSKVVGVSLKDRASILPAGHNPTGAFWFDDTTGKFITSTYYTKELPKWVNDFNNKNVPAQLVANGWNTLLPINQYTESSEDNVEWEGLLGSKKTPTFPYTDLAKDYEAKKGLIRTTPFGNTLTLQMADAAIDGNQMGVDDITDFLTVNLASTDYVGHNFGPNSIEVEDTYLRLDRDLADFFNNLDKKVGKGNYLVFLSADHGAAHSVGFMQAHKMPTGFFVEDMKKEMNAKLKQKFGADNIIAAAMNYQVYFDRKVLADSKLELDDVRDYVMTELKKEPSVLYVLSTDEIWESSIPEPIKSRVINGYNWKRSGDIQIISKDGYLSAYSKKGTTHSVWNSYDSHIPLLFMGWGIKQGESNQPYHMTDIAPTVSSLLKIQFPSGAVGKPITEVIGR"}
{"Change": "W22G", "phosphate dissociation constant": "385 µM"}
{"Change": "H63G", "phosphate dissociation constant": "8.86 µM"}
{"Change": "F37V", "phosphate dissociation constant": "607 µM"}
{"Change": "Q487G", "phosphate dissociation constant": "529 µM"}
{"Change": "Q267V", "phosphate dissociation constant": "696 µM"}
{"Change": "M20V", "phosphate dissociation constant": "321 µM"}
{"data": "Study 3", "target": "CCND2, cyclin fold, Cln2 fusion (human)", "technique": "yeast growth competition, sequencing", "matrix": "yeast", "setting": "weak parent motif", "reference": "not given", "reading": "higher = stronger binding", "parent": "viral docking peptide; KGVKRKLFAEDSS"}
{"Change": "E10Y", "normalised enrichment score": -0.437}
{"Change": "D11C", "normalised enrichment score": -0.0333}
{"Change": "L7Y", "normalised enrichment score": 0.432}
{"Change": "V3N", "normalised enrichment score": 0.36}
{"Change": "K6W", "normalised enrichment score": -0.247}
{"Change": "D11F", "normalised enrichment score": 0.133}
{"Change": "L7P", "normalised enrichment score": 0.0658}
{"Change": "L7N", "normalised enrichment score": 0.191}
{"Change": "E10A", "normalised enrichment score": 0.148}
{"Change": "G2K", "normalised enrichment score": 0.549}
{"Change": "F8L", "normalised enrichment score": -0.349}
{"Change": "G2Q", "normalised enrichment score": 0.256}
{"Change": "A9H", "normalised enrichment score": -0.0724}
{"Change": "D11R", "normalised enrichment score": -0.134}
{"Change": "G2N", "normalised enrichment score": 0.267}
{"Change": "L7S", "normalised enrichment score": 0.37}
{"Change": "F8A", "normalised enrichment score": 0.28}
{"Change": "F8R", "normalised enrichment score": 0.187}
{"Change": "K4E", "normalised enrichment score": 0.0586}
{"Change": "E10C", "normalised enrichment score": -0.199}
{"Change": "A9C", "normalised enrichment score": 0.0682}
{"Change": "S12Y", "normalised enrichment score": -0.458}
{"Change": "G2L", "normalised enrichment score": -0.0467}
{"Change": "D11V", "normalised enrichment score": 0.0698}
{"Change": "R5K", "normalised enrichment score": 0.374}
{"data": "Study 4", "Structure (SMILES)": "COC[C@H]1OC(=O)c2coc3c2[C@@]1(C)C1=C(C3=O)[C@@H]2CCC(=O)[C@@]2(C)C[C@H]1OC(C)=O", "observed": "enzyme activity", "action": "inhibitor", "tested at": "0.5 µM", "reference": "control"}
{"target": "Aurora kinase C (AURKC, Homo sapiens, UniProt Q9UQB9)", "remaining activity [%]": 99.6}
{"target": "Serine/threonine-protein kinase Sgk1 (SGK1, Homo sapiens, UniProt O00141)", "remaining activity [%]": 101}
{"target": "Serine/threonine-protein kinase pim-2 (PIM2, Homo sapiens, UniProt Q9P1W9)", "remaining activity [%]": 60.6}
{"target": "Ribosomal protein S6 kinase beta-1 (RPS6KB1, Homo sapiens, UniProt P23443)", "remaining activity [%]": 89}
{"target": "Glycogen synthase kinase-3 alpha (GSK3A, Homo sapiens, UniProt P49840)", "remaining activity [%]": 92.8}
{"target": "Ephrin type-A receptor 7 (EPHA7, Homo sapiens, UniProt Q15375)", "remaining activity [%]": 89.4}
{"data": "Study 5", "target": "POU, POU domain (Salpingoeca helianthica)", "technique": "Spec-seq", "form": "double-stranded DNA, one strand shown", "matrix": "in vitro", "tested at": "not given", "setting": "whole probe, mean of replicates", "reference": "not given", "reading": "lower = stronger binding", "shared flanks, not repeated": "GAGTCGTCTCGTCAGCAC … ATCCGTAGAGCACTCAGGTC", "Construct (chain)": "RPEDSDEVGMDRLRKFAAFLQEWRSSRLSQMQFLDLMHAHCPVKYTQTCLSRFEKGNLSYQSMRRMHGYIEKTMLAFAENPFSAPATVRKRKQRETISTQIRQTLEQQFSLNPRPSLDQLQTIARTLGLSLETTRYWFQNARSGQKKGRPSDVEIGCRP"}
{"Strand": "AAAGTA", "relative binding energy [ln ratio]": 0.738}
{"Strand": "GTGCTA", "relative binding energy [ln ratio]": 0.68}
{"Strand": "AAGGTA", "relative binding energy [ln ratio]": 0.8}
{"Strand": "TGCGTA", "relative binding energy [ln ratio]": 0.616}
{"Strand": "ACCTTA", "relative binding energy [ln ratio]": 0.527}
{"Strand": "ATGTTC", "relative binding energy [ln ratio]": 1.04}
{"Strand": "CCTTTA", "relative binding energy [ln ratio]": 0.0458}
{"Strand": "ATCCAG", "relative binding energy [ln ratio]": 1.32}
{"note": "A few entries again (study 1):"}
{"Strand": "UACGAU", "6-mer enrichment (R)": 0.599}
{"Strand": "AGGCCG", "6-mer enrichment (R)": 1.44}
{"Strand": "GUGCUG", "6-mer enrichment (R)": 1.33}
